Measured values of several laboratories.
Each line is one published result; not all experiments were run side by side. “And” joins repeats or separate records; there may be more than shown. ± gives the spread as reported.

SMILES	assay	test system	setting	half-life
N[C@@H](CC(=O)O)C(=O)OC(C(=O)O)c1ccc(Br)cc1[N+](=O)[O-] (mixture of isomers)	hydrolysis, 1H NMR	aqueous sodium phosphate, 12.5% DMSO-d6	pH 7, dark, less stable diastereomer	612 ± 6 min
C[N+]1(CC(=O)OC2CCCCCCCCCCC2)CCCCC1		mouse plasma	37 °C	60 min
CC[C@H](C)[C@H](NC(=O)CNC(=O)CNC(=O)c1ccc2c(c1)C(=O)OC21c2ccc(O)cc2Oc2cc(O)ccc21)C(=O)N[C@@H](Cc1ccc(O)cc1)C(=O)N(C)CC(=O)N[C@@H](C)C(=O)N1CCC[C@H]1C(=O)N(C)[C@@H](Cc1ccccc1)C(=O)N[C@@H](CCCCN)C(=O)N[C@@H](CCCCN)C(=O)N[C@@H](CCCCN)C(=O)N[C@@H](C)C(N)=O	CE-LIF	Baf/BCR-ABL cell cytosolic lysate	1 µM, pH 7.4, 37 °C	5.5 min
CC1(C)C(=CC=C(C=CC2=[N+](CCC[N+](C)(C)C)c3ccc(S(=O)(=O)[O-])cc3C2(C)C)Oc2ccc(CCC(=O)[O-])cc2)N(CCC[N+](C)(C)C)c2ccc(S(=O)(=O)[O-])cc21		pig	iv, dose not given	45.7 min and ~45 min
Cn1cc(C(N)=O)c(NC2C3CC4CC2CC(O)(C4)C3)c2ccnc1-2 (centres unmarked)		Japanese adults, normal hepatic function, plasma	oral, 150 mg single dose	734 min
CCOC(=O)CCC(=O)Oc1ccc(/C=C/C(=O)/C=C(O)/C=C/c2ccc(OC(=O)CCC(=O)OCC)c(OC)c2)cc1OC		beagle dog plasma	1.5 µM, 37 °C	7.82 ± 1.02 min
O=C(Nc1ccc(-c2noc(C3CC3)n2)c(Cl)c1)c1cccs1		buffer	5 µM, pH 10.0, 37 °C	52.7 ± 12.4 min
CC(C)(C)[C@H](NC(=O)C(F)F)C(=O)N1C[C@H]2[C@@H]([C@H]1C(=O)N[C@H](C#N)C[C@@H]1CCCNC1=O)C2(C)C		mouse liver microsomes	microsomes 0.5 mg/mL	16.6 min
O=C(NCCCCc1ccccc1)n1c(=O)oc2cc(-c3ccc(F)cc3)ccc21		mouse plasma	37 °C	> 120 min
CCNCC#CCNc1ccnc2cc(Cl)ccc12		plasma	2 µM, pH 7.4, 37 °C	159 min
Cc1ccccc1-c1cc(N2CC[N+](C)([O-])CC2)ncc1N(C)C(=O)C(C)(C)c1cc(C(F)(F)F)cc(C(F)(F)F)c1		healthy volunteers, plasma	oral, dose not given, netupitant-palonosetron fixed-dose combination	3350 min
CC(=O)NC1C(N=C(N)N)C=C(C(=O)OC(C)OC(=O)C(N)C(C)C)OC1C(O)C(O)CO (mixture of isomers)		hydrochlorate buffer	pH 1.2, 37 °C, chemical hydrolysis	> 240 min
COc1cc(CNC(=O)CCCC/C=C/C(C)C)ccc1N		C57BL/6 mouse plasma	2 µM	2160 min
C[C@H](N)C(=O)OCCOCn1cnc2c(=O)[nH]c(N)nc21		DPBS	pH 6.0, 34 °C, chemical hydrolysis	2820 ± 300 min
